Assay results gathered from unrelated publications.

SMILES	assay	test system	setting	measurement	result
CO[C@H]1C[C@@H]2CC[C@@H](C)[C@@](O)(O2)C(=O)C(=O)N2CCCC[C@H]2C(=O)O[C@H]([C@H](C)C[C@@H]2CC[C@@H](OCCO)[C@H](OC)C2)CC(=O)[C@H](C)/C=C(\C)[C@@H](O)[C@@H](OC)C(=O)[C@H](C)C[C@H](C)/C=C/C=C/C=C/1C		human, plasma	oral, 5 mg, single dosing, added: vorolanib 100 mg	median Tmax	1 h
COc1ncc(-c2nc3c(n2C(C)C)[C@H](c2ccc(Cl)cc2)N(c2cc(Cl)cn(C)c2=O)C3=O)c(OC)n1		human patients, plasma	oral, 50 mg, high-dose arm, cycle 1 day 1	median Tmax	3 h
COc1cc2nccc(Oc3ccc(NC(=O)c4cc5c(n(-c6ccccc6)c4=O)CCCC5=O)nc3)c2cc1OC		human patients	oral, with venetoclax 6 mg once daily	median Tmax	4.1 h
CC(C)=CCC/C(C)=C/CC/C(C)=C/CC[C@@](C)(O)CCC1=C(C)C(=O)C(C)=C(C)C1=O		healthy human, plasma	oral, 400 mg	median half-life	10.6 h
CCCCOc1ccc([C@H]2CC[C@H](CCC)CC2)c(F)c1F		human mother-newborn pairs, maternal serum		median concentration	5.17 ng/mL
CN[C@@H](C)C(=O)N[C@H]1CN(S(=O)(=O)c2cccc(S(=O)(=O)N3CC[C@H]4CC[C@@H](C(=O)NC(c5ccccc5)c5ccccc5)N4C(=O)[C@@H](NC(=O)[C@H](C)NC)C3)c2)CC[C@H]2CC[C@@H](C(=O)NC(c3ccccc3)c3ccccc3)N2C1=O	LC-MS/MS, noncompartmental	human, plasma	20 mg, cycle 1 day 1	median Tmax	0.5 h
CC[C@H](Nc1ncnc2[nH]cnc12)c1oc2ccccc2c(=O)c1-c1cccc(F)c1		human patients, plasma	oral, 600 mg twice daily, added: romidepsin 12 mg/m2	median Tmax	3 h
O=C(NO)c1ccc(CN(c2cnccn2)c2cnccn2)cc1		human patients, phase I, plasma	oral	median Tmax	1.3 to 4.5 h
COc1nnc2ccc(N3CCC(c4ccc(OCCN5CCN(C)C(=O)[C@H]5C)cc4)CC3)nn12		human, blood	oral, 30 mg once daily	median time to platelet nadir	6 weeks

Repeated from above:
SMILES	assay	test system	setting	measurement	result
CC(C)=CCC/C(C)=C/CC/C(C)=C/CC[C@@](C)(O)CCC1=C(C)C(=O)C(C)=C(C)C1=O		healthy human, plasma	oral, 400 mg	median half-life	10.6 h
